Measured values collected from several papers.
Lines come from different studies, so protocols differ. Numbers after ± are the reported error.

| SMILES | tested on | test | test system | conditions | scale | endpoint | value |
| --- | --- | --- | --- | --- | --- | --- | --- |
| CC(C)[C@H](NC(=O)[C@@H]1CCCN1C(=O)[C@H](CCCNC(=N)N)NC(=O)[C@H](CS)NC(=O)[C@H](Cc1c[nH]c2ccccc12)NC(=O)[C@H](CCCNC(=N)N)NC(=O)[C@@H](Cc1ccccc1)NC(=O)[C@H](Cc1c[nH]cn1)NC(=O)[C@H](CCC(=O)O)NC(=O)[C@H](CS)NC(=O)[C@H](CS)NC(=O)[C@H](CCCCN)NC(=O)[C@@H]1CC(=O)N[C@@H](CCCNC(=N)N)C(=O)N[C@@H](C)C(=O)N[C@@H](CC(=O)O)C(=O)N[C@H](Cc2ccc(O)cc2)C(=O)N1)C(N)=O [technetium-99m labelled] | – | – | C57 mice, lung | intravenous, 0.037 MBq, 2 h | – | tissue uptake | 0.87 ± 0.21 %ID/g |
| CC(C)[C@H](NC(=O)[C@@H]1CCCN1C(=O)[C@H](CCCNC(=N)N)NC(=O)[C@H](CS)NC(=O)[C@H](Cc1c[nH]c2ccccc12)NC(=O)[C@H](CCCNC(=N)N)NC(=O)[C@@H](Cc1ccccc1)NC(=O)[C@H](Cc1c[nH]cn1)NC(=O)[C@H](CCC(=O)O)NC(=O)[C@H](CS)NC(=O)[C@H](CS)NC(=O)[C@H](CCCNC(=N)N)NC(=O)[C@@H]1CC(=O)N[C@@H](CCCNC(=N)N)C(=O)N[C@@H](C)C(=O)N[C@@H](CC(=O)O)C(=O)N[C@H](Cc2ccc(O)cc2)C(=O)N1)C(N)=O [technetium-99m labelled] | – | – | C57 mouse, urinary bladder | intravenous, 0.037 MBq, 2 h | – | tissue uptake | 74.5 ± 7.3 %ID |
| CCCC[C@H](NC(C)=O)C(=O)N[C@H]1CCC(=O)NC[C@@H](C(=O)N[C@@H](Cc2c[nH]c3ccccc23)C(N)=O)NC(=O)[C@H](CCCNC(=N)N)NC(=O)[C@@H](Cc2ccccc2)NC(=O)[C@H](Cc2c[nH]cn2)NC1=O | – | – | female Sprague-Dawley rat, plasma | subcutaneous, 25 mg/kg, multiple doses, once daily | – | AUC(0-t) | 11900 ng·h/mL |
| COCCOC(=O)Nc1cc2nc(C3CCCCC3)[nH]c2cc1N1CCCC1 | Vero | cytotoxicity, Alamar Blue | – | 3 days, 37 °C | – | IC50 | > 100 µg/mL |
| CCCCC1(CCCC)CN(c2ccccc2)c2cc(SC)c(OCC(=O)N[C@@H](C(=O)NCC(=O)O)c3ccccc3)cc2S(=O)(=O)C1 | – | – | human, plasma | oral, 15 mg once daily, day 1, geometric mean | – | AUC(0-t) | 1.75 ng·h/mL |
| C#C[C@]1(CO)O[C@@H](n2cnc3c(N)nc(F)nc32)C[C@@H]1O | – | – | human, plasma | oral, 5 mg, single dose, fasted | – | AUC(0-t) | 0.37 µM·h |
| CC(C)(C)c1cc(C(C)(C)C)c(NC(=O)c2c[nH]c3ccccc3c2=O)cc1O | Calu-3 | MTT | – | 20 µg/mL, 24 h | relative to: untreated control | viability | 17.4 ± 0.6% |
| CNCc1ccc(-c2[nH]c3cc(F)cc4c3c2CCNC4=O)cc1 | – | – | human, fed high-fat meal, plasma | oral, 600 mg, 24 h, single dose, median | – | AUC(0-t) | 10900 ng·h/mL |
| CNC(=O)c1ccc(-c2cnc3ncc(Cc4ccc5ncccc5c4)n3n2)cc1F | – | – | human mild hepatic impairment | oral, 200 mg single dose, adjusted geometric mean | – | AUC(0-t) | 4730 ng·h/mL |
| CC(=O)O[C@@]12CO[C@@H]1C[C@H](O)[C@@]1(C)C(=O)[C@H](O)C3=C(C)[C@@H](OC(=O)[C@H](O)[C@@H](NC(=O)OC(C)(C)C)c4ccccc4)C[C@@](O)([C@@H](OC(=O)c4ccccc4)[C@H]21)C3(C)C | – | – | male Sprague-Dawley rat, plasma | intravenous, 10 mg/kg | – | AUC(0-t) | 2590 ng·h/mL |
| Cc1nc2cccc(OCC(C)(C)C(=O)NC(C)C)c2c(N)c1C(=O)O | – | – | male Sprague-Dawley rat, plasma | oral, 10 mg/kg, single dose | – | AUC(0-t) | 17.9 ng·h/mL |
| CCCOc1ccc([C@H]2CNC(=O)N2c2ccc3[nH]cnc3c2)cc1 | – | – | human, plasma | oral, 100 mg, single dose, fasted | – | AUC(0-t) | 685 ng·h/mL |

A few entries again:
| SMILES | tested on | test | test system | conditions | scale | endpoint | value |
| --- | --- | --- | --- | --- | --- | --- | --- |
| CCCCC1(CCCC)CN(c2ccccc2)c2cc(SC)c(OCC(=O)N[C@@H](C(=O)NCC(=O)O)c3ccccc3)cc2S(=O)(=O)C1 | – | – | human, plasma | oral, 15 mg once daily, day 1, geometric mean | – | AUC(0-t) | 1.75 ng·h/mL |
| C#C[C@]1(CO)O[C@@H](n2cnc3c(N)nc(F)nc32)C[C@@H]1O | – | – | human, plasma | oral, 5 mg, single dose, fasted | – | AUC(0-t) | 0.37 µM·h |
